Assay results gathered from unrelated publications.
Compare with care: the assays were run in different laboratories. Several values in a cell are separate wells, animals, samples, runs or records. ≈ marks a conversion by molar mass, not a printed value.
Organism: Staphylococcus aureus

| Structure (SMILES) | assay | test system | conditions | how to read | measurement | result |
| --- | --- | --- | --- | --- | --- | --- |
| OB(O)c1ccc(C(F)(F)F)s1 | crystal violet | USA300 wild type | 1 µM | relative to: wild type untreated | biofilm formation | 66.2% and 77.6% |
| C=C(NC(=O)c1csc(-c2nc3c(cc2O)-c2nc(cs2)C(=O)NC(C(C)O)C(=O)NC(=C(C)OC)c2nc(cs2)C(=O)NC2c4nc(cs4)C(=O)NC(COC(=O)c4c5c6c(cccc6n4O)COC(=O)C(OC4CC(C)(O)C(N(C)C)C(C)O4)C2OC5)c2nc-3cs2)n1)C(N)=O (centres unmarked) |  | MRSA strain 1 |  |  | MIC | 0.0156 µg/mL (≈ 0.0109 µM) |
| CC1=C[C@@H](C)[C@H]2[C@@H]3C(=O)C(Cl)(Cl)C(=O)[C@H](C)C(=O)O[C@@H](C)/C=C/C=C\[C@@H](C)[C@@H]3C=C[C@@H]2C1 |  | USA300 JE2 saeR transposon mutant |  |  | MIC | 0.025 µg/mL (≈ 0.0521 µM) |
| c1ccc(CCNC2CCCc3c2[nH]c2ccc(C4CCCCC4)cc32)cc1 (centres unmarked) | microbial growth, broth dilution | ATCC29213 |  |  | MIC | 2 µg/mL (≈ 5.37 µM) |
| CC(C)CCCCCCCCC/C=C/C(=O)N[C@@H](CC(=O)O)C(=O)N[C@H]1CNC(=O)[C@@H]2CCCN2C(=O)[C@H](C(C)C)NC(=O)[C@@H](CN)NC(=O)CNC(=O)[C@H](CC(=O)O)NC(=O)CNC(=O)[C@H](CC(=O)O)NC(=O)[C@H](CC(=O)O)NC(=O)[C@H]2CCCCN2C1=O | broth microdilution | VISA LIM strain 2, Mueller-Hinton broth, Mg2+ 10 mg/L | 16 h, together with: Ca2+ 10 mM |  | MIC | 1 µg/mL (≈ 0.783 µM) |
| CCCCCCCCCCCCCC(=O)N[C@H]1C(=O)N[C@@H](CN)C(=O)N[C@@H](CO)C(=O)N[C@@H](Cc2ccc(O)cc2)C(=O)O[C@H]1C |  | SH1000 | together with: lysophosphatidylethanolamine, molar ratio 0.5 |  | MIC | 2 µg/mL |
| N=C(N)NCCC[C@H](NC(=O)[C@H](Cc1c[nH]c2ccccc12)NC(=O)[C@H](CCCNC(=N)N)NC(=O)[C@H](CCCNC(=N)N)NC(=O)[C@@H]1CCCN1C(=O)[C@H](CCCCN)NC(=O)[C@@H](N)CCCNC(=N)N)C(=O)N[C@@H](Cc1c[nH]c2ccccc12)C(=O)N[C@@H](Cc1c[nH]c2ccccc12)C(=O)N1CCC[C@H]1C(=O)N[C@@H](CCCCN)C(=O)N[C@@H](CCCNC(=N)N)C(=O)N1CCC[C@H]1C(=O)O |  | 09057, female BALB/c mice, sepsis, kidney | intraperitoneal, 20 mg/kg |  | log bacterial load | 6.01 log(CFU/g) and 5.16 log(CFU/g) and 5.22 log(CFU/g) and 5.73 log(CFU/g) and 4.92 log(CFU/g) and 5.4 log(CFU/g) |
| CC[C@H](C)[C@@H]1NC(=O)[C@@H]([C@@H](C)O)NC(=O)CNC(=O)[C@H](CC(=O)O)NC(=O)CNC(=O)[C@H](CC(=O)O)NC(=O)CNC(=O)[C@H]2CCCCN2C(=O)[C@@H](NC(=O)[C@H](CC(=O)O)NC(=O)/C=C/CCCCCCCCCC(C)C)CNC(=O)[C@@H]2CCCN2C1=O | broth microdilution | VISA LIM strain 2, Mueller-Hinton broth, Mg2+ 10 mg/L | 16 h, together with: Ca2+ 2.5 mM |  | MIC | 4 µg/mL (≈ 3.21 µM) |

A few entries again:
| Structure (SMILES) | assay | test system | conditions | how to read | measurement | result |
| --- | --- | --- | --- | --- | --- | --- |
| CC[C@H](C)[C@@H]1NC(=O)[C@@H]([C@@H](C)O)NC(=O)CNC(=O)[C@H](CC(=O)O)NC(=O)CNC(=O)[C@H](CC(=O)O)NC(=O)CNC(=O)[C@H]2CCCCN2C(=O)[C@@H](NC(=O)[C@H](CC(=O)O)NC(=O)/C=C/CCCCCCCCCC(C)C)CNC(=O)[C@@H]2CCCN2C1=O | broth microdilution | VISA LIM strain 2, Mueller-Hinton broth, Mg2+ 10 mg/L | 16 h, together with: Ca2+ 2.5 mM |  | MIC | 4 µg/mL (≈ 3.21 µM) |
